Measurements from different studies.
Compare with care: the assays were run in different laboratories. “And” joins repeats or separate records; there may be more than shown. ± marks the error that the study gave.

CN[C@@H](C)C(=O)N[C@H]1CN(C(=O)CC(C)C)CC[C@H]2CC[C@@H](C(=O)NC(c3ccccc3)c3ccccc3)N2C1=O  tumour apoptosis rate constant (tumour growth inhibition model; mouse, MDA-MB-231 xenograft): 0.00067 h⁻¹
C=CCn1c(=O)c2cnc(Nc3ccc(N4CCN(C)CC4)cc3)nc2n1-c1ccc2c(n1)[C@@](O)(CC)CC2  tumour volume difference (NOD/SCID mouse, A-427 xenograft; oral, 80 mg/kg, 5 d on 2 d off ×4, day 29; reference: vehicle): -94.9 ± 6.6 mm3
C[C@]12CC[C@@H]3c4ccc(O)cc4C[C@@H](CCCCCCCCC[S+]([O-])CCCC(F)(F)C(F)(F)F)[C@H]3[C@@H]1CC[C@@H]2O (some centres unmarked)  tumour volume (female nude mouse LCC2 xenograft; 2.0 mg/kg, day 7, tamoxifen-resistant): 68.1 mm3 and 39 mm3 and 95.2 mm3 and 73.1 mm3 and 39.5 mm3 and 45.6 mm3 and 56.4 mm3
CC1(C)C(/C=C/C=C/C=C/C=C2\N(CCCCS(=O)(=O)O)c3ccc4ccccc4c3C2(C)C)=[N+](CCCCS(=O)(=O)[O-])c2ccc3ccccc3c21  tumour recurrence rate (mouse, MCF10 DCIS.com intraductal xenograft; intravenous, 0.5 mg/kg, 672 h, image-guided surgery): 100%
COc1cc(N2CCC(N3CCN(C)CC3)CC2)ccc1Nc1ncc(Cl)c(Nc2ccccc2P(C)(C)=O)n1  tumour volume (NCI-H3122 xenograft, female nude mouse; intraperitoneal, 10 mg/kg, every other day): 567 mm3 and 494 mm3 and 683 mm3 and 438 mm3 and 387 mm3
Cl.O=C(c1cc(Cc2n[nH]c(=O)c3ccccc23)ccc1F)N1CC(CNC2CC2)C1  tumour growth inhibition (BALB/c nude mouse, MX1 xenograft; oral, 12.5 mg/kg once daily, 23 days): 43.8%
C=CC(=O)Nc1cc(Nc2nccc(Nc3cc(Cl)c(F)cc3C(C)(C)O)n2)c(OC)cc1N1CC[C@@H](N(C)C)C1  tumour growth inhibition (NCI-H2073 EGFR SVD knock-in, BALB/c nude mouse, NCI-H2073 xenograft; 50 mg/kg twice daily, 21 days): 117%
COc1cc2ncnc(Nc3ccc(F)c(Cl)c3)c2cc1OCCCN1CCOCC1  tumour weight (mouse LLC syngeneic tumour; ip, 50 mg/kg every two days, 14 days): 0.79 g
COc1c(Cl)cccc1Nc1c(-c2ccncc2OC[C@@H]2COCCO2)[nH]c2c1C(=O)NCC2  tumour weight T/C (mouse, NSCLC PDX sample A; oral, 10 mg/kg once daily, day 27, unit not given; reference: vehicle): 0.22
CC[C@H](C)[C@H](NC(=O)[C@H](CCCCN)NC(=O)[C@@H](NC(=O)[C@H](CCCNC(=N)N)NC(=O)[C@@H](NC(=O)[C@@H](CCCNC(=N)N)NC(=O)[C@@H](CCCNC(=N)N)NC(=O)[C@@H](CCCNC(=N)N)NC(=O)[C@@H](CCCNC(=N)N)NC(=O)[C@@H](CCCNC(=N)N)NC(=O)[C@H](N)CCCNC(=N)N)[C@@H](C)O)[C@@H](C)O)C(=O)N[C@@H](CC(=O)O)C(=O)N[C@@H](Cc1c[nH]c2ccccc12)C(=O)NC(C)(C)C(=O)N[C@@H](CCCCN)C(=O)N[C@H](C(=O)N[C@@H](CC(C)C)C(=O)NC(C)(C)C(=O)N[C@@H](CCCCN)C(=O)NCCCCCC(=O)NCCCC[C@H](NC(=O)CCCCCNC(=O)[C@H](CCCCN)NC(=O)C(C)(C)NC(=O)[C@H](CC(C)C)NC(=O)[C@@H](NC(=O)[C@H](CCCCN)NC(=O)C(C)(C)NC(=O)[C@H](Cc1c[nH]c2ccccc12)NC(=O)[C@H](CC(=O)O)NC(=O)[C@@H](NC(=O)[C@H](CCCCN)NC(=O)[C@@H](NC(=O)[C@H](CCCNC(=N)N)NC(=O)[C@@H](NC(=O)[C@@H](CCCNC(=N)N)NC(=O)[C@@H](CCCNC(=N)N)NC(=O)[C@@H](CCCNC(=N)N)NC(=O)[C@@H](CCCNC(=N)N)NC(=O)[C@@H](CCCNC(=N)N)NC(=O)[C@H](N)CCCNC(=N)N)[C@@H](C)O)[C@@H](C)O)[C@@H](C)CC)[C@@H](C)CC)C(N)=O)[C@@H](C)CC  tumour growth (B16-F10, mouse syngeneic melanoma; intravenous, 25 mg/kg, up to 8 days): inhibited
Cc1nc(N(Cc2ccccc2)c2ccc3c(c2)/C(=C/c2ccccc2)C(=O)N3Cc2ccccc2)c2ccccc2n1 (mixture of isomers)  tumour weight (mouse LLC syngeneic tumour; ip, 30 mg/kg every two days, 14 days): 0.38 g
COCc1cc(C(=O)Nc2cc([C@H]3CC[C@@H](OC(=O)NC(C)C)C3)[nH]n2)n(C)n1  tumour growth inhibition (OVCAR-3 xenograft, NSG mouse; oral twice daily, middle dose of escalation): 61%
CC1(C)CN(CCCCC(=O)N[C@H](Cc2ccccc2)C(=O)N[C@H](Cc2ccccc2)C(=O)N[C@@H](CCCCNC(=O)CCCCCCC(=O)NCCCC[C@H](NC(=O)N[C@@H](CCC(=O)O)C(=O)O)C(=O)O)C(=O)O)CC[N]2CC(C)(C)[S][Tc]2(=[O])[S]1 (some centres unmarked) [technetium-99m labelled]  tumour uptake (SPECT/PET imaging; mouse, subcutaneous LNCaP tumour, tumour; dose not given, 4 h post-injection): decreased
COc1ccc(F)cc1C(=O)NCc1ccc(-c2nn([C@@H](C)C(F)(F)F)c(N)c2C(N)=O)cc1  tumour regression (TMD8 xenograft, mouse; 30 mg/kg twice daily, day 18): -49%

Some of these lines once more:
COc1c(Cl)cccc1Nc1c(-c2ccncc2OC[C@@H]2COCCO2)[nH]c2c1C(=O)NCC2  tumour weight T/C (mouse, NSCLC PDX sample A; oral, 10 mg/kg once daily, day 27, unit not given; reference: vehicle): 0.22
